Experimental data pooled from the literature.
Parts stem from different laboratories: compare values within a part only. pIC50: −log10 of the molar value.
UniProt Q16566, sequence (whole entry, looked up): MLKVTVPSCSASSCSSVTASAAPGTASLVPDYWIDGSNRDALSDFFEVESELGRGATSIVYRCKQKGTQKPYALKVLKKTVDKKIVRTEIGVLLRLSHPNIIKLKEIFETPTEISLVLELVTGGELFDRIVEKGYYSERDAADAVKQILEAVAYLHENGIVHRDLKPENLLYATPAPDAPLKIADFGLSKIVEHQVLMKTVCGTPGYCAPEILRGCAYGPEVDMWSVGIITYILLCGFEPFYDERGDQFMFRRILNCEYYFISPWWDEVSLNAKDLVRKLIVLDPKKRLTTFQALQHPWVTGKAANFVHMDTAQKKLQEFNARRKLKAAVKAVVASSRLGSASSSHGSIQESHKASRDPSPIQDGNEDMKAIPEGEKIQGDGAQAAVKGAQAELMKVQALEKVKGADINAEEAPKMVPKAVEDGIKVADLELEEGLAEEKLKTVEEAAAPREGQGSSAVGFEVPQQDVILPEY
UniProt Q9UM73, sequence (whole entry, unmodified, looked up): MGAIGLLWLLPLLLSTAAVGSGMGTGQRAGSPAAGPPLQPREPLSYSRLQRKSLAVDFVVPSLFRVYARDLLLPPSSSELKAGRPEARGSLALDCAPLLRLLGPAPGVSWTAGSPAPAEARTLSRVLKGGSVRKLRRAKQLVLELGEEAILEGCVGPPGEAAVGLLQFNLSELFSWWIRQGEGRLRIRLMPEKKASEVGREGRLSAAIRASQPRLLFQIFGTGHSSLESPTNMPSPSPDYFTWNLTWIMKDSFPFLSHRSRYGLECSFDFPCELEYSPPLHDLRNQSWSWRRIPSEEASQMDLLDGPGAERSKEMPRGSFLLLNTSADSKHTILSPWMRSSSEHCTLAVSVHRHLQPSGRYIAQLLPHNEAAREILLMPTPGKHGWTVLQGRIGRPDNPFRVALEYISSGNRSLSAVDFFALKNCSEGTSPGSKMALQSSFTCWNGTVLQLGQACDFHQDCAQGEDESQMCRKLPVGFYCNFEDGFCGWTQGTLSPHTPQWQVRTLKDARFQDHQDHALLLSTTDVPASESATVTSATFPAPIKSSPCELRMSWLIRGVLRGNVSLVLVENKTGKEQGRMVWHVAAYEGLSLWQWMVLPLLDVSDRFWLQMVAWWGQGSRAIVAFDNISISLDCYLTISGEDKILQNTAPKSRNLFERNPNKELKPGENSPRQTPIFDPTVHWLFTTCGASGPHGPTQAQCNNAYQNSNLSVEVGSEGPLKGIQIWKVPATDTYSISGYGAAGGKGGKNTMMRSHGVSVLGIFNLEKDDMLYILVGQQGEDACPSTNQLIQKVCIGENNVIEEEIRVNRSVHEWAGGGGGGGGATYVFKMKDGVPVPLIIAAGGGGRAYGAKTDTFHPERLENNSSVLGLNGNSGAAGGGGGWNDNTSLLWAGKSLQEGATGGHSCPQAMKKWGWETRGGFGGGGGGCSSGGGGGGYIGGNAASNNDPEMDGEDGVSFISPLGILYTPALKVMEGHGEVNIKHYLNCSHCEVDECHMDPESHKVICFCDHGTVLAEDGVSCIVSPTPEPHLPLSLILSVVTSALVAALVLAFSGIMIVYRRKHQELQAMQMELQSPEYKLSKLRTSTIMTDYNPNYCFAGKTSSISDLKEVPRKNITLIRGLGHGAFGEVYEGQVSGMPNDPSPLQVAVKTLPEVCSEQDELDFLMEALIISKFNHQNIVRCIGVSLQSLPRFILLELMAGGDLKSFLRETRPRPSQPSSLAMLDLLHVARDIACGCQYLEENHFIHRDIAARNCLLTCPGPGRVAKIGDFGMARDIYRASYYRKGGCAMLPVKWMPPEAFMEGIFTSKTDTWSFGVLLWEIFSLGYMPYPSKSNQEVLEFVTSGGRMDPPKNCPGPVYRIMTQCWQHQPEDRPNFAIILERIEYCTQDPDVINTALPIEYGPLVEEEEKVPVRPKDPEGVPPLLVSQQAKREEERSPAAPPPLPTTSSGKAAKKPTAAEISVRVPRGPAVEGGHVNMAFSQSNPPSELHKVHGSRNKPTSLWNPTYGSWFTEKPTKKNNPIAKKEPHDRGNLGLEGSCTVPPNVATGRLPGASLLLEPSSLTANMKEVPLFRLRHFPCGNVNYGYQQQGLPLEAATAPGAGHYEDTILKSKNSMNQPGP
UniProt Q96GD4, sequence (whole entry, looked up): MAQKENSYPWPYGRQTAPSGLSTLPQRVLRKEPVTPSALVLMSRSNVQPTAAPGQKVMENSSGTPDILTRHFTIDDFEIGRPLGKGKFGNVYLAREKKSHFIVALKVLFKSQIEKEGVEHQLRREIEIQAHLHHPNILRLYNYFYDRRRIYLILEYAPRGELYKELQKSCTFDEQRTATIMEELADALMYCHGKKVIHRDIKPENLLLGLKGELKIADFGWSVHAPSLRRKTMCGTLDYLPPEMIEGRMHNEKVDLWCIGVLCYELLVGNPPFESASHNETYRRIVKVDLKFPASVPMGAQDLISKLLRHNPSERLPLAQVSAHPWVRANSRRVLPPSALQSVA
UniProt P78356, sequence (whole entry, looked up): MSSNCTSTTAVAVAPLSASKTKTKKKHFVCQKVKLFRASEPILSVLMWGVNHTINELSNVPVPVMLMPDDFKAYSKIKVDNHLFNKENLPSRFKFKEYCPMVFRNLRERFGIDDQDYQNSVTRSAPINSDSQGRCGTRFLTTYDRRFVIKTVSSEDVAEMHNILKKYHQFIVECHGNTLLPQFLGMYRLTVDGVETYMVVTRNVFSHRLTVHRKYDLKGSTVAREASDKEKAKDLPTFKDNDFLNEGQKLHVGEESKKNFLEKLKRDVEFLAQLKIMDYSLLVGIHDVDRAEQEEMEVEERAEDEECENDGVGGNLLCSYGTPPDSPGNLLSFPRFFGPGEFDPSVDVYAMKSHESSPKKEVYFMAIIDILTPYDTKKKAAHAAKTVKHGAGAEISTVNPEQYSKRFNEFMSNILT
UniProt P11802, sequence (whole entry, looked up): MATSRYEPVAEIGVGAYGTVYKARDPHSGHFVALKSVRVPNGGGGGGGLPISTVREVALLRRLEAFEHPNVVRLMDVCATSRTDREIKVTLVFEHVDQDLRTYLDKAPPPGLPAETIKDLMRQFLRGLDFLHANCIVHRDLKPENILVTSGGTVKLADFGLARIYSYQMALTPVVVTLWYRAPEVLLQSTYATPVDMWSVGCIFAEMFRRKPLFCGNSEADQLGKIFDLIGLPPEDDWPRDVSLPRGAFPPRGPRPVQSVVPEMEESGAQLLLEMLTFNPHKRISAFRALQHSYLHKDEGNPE

Series 1
Target: Prothrombin, mature alpha-thrombin (F2, Homo sapiens, UniProt P00734)
Technique: aptamer microarray, sandwich
Molecule type: DNA with 2'F-ANA
Matrix: in vitro
Concentration: 200 nM
Notes: whole 15-mer aptamer, many near background
Added: Cy3 exosite-II aptamer, 400 nM
Reading: higher = stronger binding
Oligonucleotide: GGTTGGTGTGGTTGG
Under “mean fluorescence intensity”, `2'F-ANA at 2 6 7 8 10 11 12 13 15` is recorded as 227 a.u.
`2'F-ANA at 2 3 5 6 7 8 12 14` — result for “mean fluorescence intensity”: 55.3 a.u.
For `2'F-ANA at 1 9 10 13 14`, “mean fluorescence intensity” read 46.8 a.u.
`2'F-ANA at 1 2 10 11 12 14` — result for “mean fluorescence intensity”: 45.2 a.u.
`2'F-ANA at 1 6 7 10 11 12`: “mean fluorescence intensity” 73.2 a.u.
Under “mean fluorescence intensity”, `2'F-ANA at 3 7 10 11 12 13 14 15` is recorded as 449 a.u.
For `2'F-ANA at 1 2 5 7 8 9 10 13 14 15`, “mean fluorescence intensity” read 42.6 a.u.
`2'F-ANA at 1 3 5 6 8 9 11 13` — result for “mean fluorescence intensity”: 58.4 a.u.

Series 2
Target: Beta-1 adrenergic receptor (ADRB1, Homo sapiens, UniProt P08588)
UniProt P08588, sequence (whole entry, looked up): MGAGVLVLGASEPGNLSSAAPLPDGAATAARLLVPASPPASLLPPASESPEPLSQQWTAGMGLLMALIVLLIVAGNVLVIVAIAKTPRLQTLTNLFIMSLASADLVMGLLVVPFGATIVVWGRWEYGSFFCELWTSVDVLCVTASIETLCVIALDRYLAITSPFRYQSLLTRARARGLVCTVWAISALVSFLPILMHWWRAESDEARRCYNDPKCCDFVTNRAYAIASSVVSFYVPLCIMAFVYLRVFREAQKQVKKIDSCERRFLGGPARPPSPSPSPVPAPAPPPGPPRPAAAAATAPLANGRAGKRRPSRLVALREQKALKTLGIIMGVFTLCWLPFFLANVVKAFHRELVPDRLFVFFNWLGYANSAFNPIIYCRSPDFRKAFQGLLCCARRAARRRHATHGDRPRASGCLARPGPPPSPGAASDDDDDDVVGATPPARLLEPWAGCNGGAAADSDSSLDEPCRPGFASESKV
Action: antagonist
For `Cc1ccccc1-c1n[nH]c2ncc(-c3ccsc3)nc12`, the pIC50 was no more than 4.00.
For `COc1ccccc1N1CCN(C(C)C(N)=O)CC1` (stereo not shown), the pIC50 was no more than 4.00.
`O=C1c2cc(N3CCOCC3)nc(-c3cccc(O)c3)c2CN1CC(F)(F)F` has a pIC50 of no more than 4.00.
`OC(c1ccccc1)c1nc(Nc2ccc(C(F)(F)F)cc2)n[nH]1` (stereo not shown) gave a pIC50 of no more than 4.00.

Series 3
Species: mouse
Matrix: microsomes or S9
Concentration: 2 µM
Time: 0.5 h
The remaining compound of `O=c1[nH]c(N2CCCCC2)nc2ncc3c(c12)-c1ccccc1C3` is reported as 1.62%.
With `CN(C(=O)CN1C(=O)COc2cc(Cl)c(Cl)cc21)C(CN1CCCC1)c1ccc(Br)cc1` (stereo not shown) the remaining compound was greater than 100%.
`CCCc1cc(=O)[nH]c(-n2nc(C)cc2NC(=O)COc2ccccc2C)n1` gave a remaining compound of 20.2%.

Series 4
SMILES: Cc1cc(NC(=O)c2cccc(S(F)(F)(F)(F)F)c2)cc(-n2ccn3nc(-c4cccnc4)cc23)c1
Effect on: cell-free assay
Technique: competition with immobilised ligand
Concentration: 1 µM
It gave 100% for remaining binding (ALK (Homo sapiens, UniProt Q9UM73, C1156Y)).
It gave 100% for remaining binding (PDGFRB (Homo sapiens, UniProt P09619)).
For Cyclin-dependent kinase 4, with cyclin D3 (CDK4, Homo sapiens, UniProt P11802): remaining binding read 100%.
For PIK3C3 (Homo sapiens, UniProt Q8NEB9): remaining binding read 76.6%.
The remaining binding was 80% (CAMK2D (Homo sapiens, UniProt Q13557)).
ROCK2 (Homo sapiens, UniProt O75116) — remaining binding: 87.6%.
The remaining binding was 82% (Aurora kinase B (AURKB, Homo sapiens, UniProt Q96GD4)).
The remaining binding was 72.8% (DSTYK (Homo sapiens, UniProt Q6XUX3)).
The remaining binding was 98.1% (ERBB4 (Homo sapiens, UniProt Q15303)).
It gave 34.1% for remaining binding (RIPK4 (Homo sapiens, UniProt P57078)).
The remaining binding was 100% (PIP4K2B (Homo sapiens, UniProt P78356)).
It gave 100% for remaining binding (FLT3 (Homo sapiens, UniProt P36888)).
The remaining binding was 80.5% (CAMK4 (Homo sapiens, UniProt Q16566)).

Repeated from above (series 1):
For `2'F-ANA at 1 9 10 13 14`, “mean fluorescence intensity” read 46.8 a.u.
Under “mean fluorescence intensity”, `2'F-ANA at 3 7 10 11 12 13 14 15` is recorded as 449 a.u.
`2'F-ANA at 1 2 10 11 12 14` — result for “mean fluorescence intensity”: 45.2 a.u.
For `2'F-ANA at 1 2 5 7 8 9 10 13 14 15`, “mean fluorescence intensity” read 42.6 a.u.
